Experimental data gathered from unrelated publications.
Each line is one published result; not all experiments were run side by side. Numbers after ± are the reported error.

With CC(C)[C@@H](N)C(=O)OC[C@H]1O[C@@](C#N)(c2ccc3c(N)ncnn23)[C@H](O)[C@@H]1O the selectivity index was over 69.4 (human respiratory syncytial virus; viral replication, viral protein ELISA; HEp-2, A2; 5 days; reference: CC50 over EC50).
NC(=O)CC[C@H](N)C(=O)O has an uptake half-time of 10.1 h (Bacillus subtilis; NCIB3610, MOPS medium; 1 mM, 1 mM equimolar amino acid mixture).
For CCC(CC)COC(=O)[C@H](C)N[P@](=O)(OC[C@H]1O[C@@](C#N)(c2ccc3c(N)ncnn23)[C@H](O)[C@@H]1O)Oc1ccccc1, the selectivity index was 73.8 (human respiratory syncytial virus; viral replication, viral protein ELISA; HEp-2, A2; 5 days; reference: CC50 over EC50).
Cc1cc(Nc2ccc(S(F)(F)(F)(F)F)cc2)n2nc(C(C)(F)F)nc2n1 — result for “patients with QTcB increase”: 0% (Plasmodium falciparum; 12-lead ECG; malaria patients; oral, 400 mg, increase above 30 ms).
For CC[C@H](CO)N(CCN(N=O)[C@H](CC)CO)N=O, “revertant colonies per plate” read 12 ± 2 (Salmonella typhimurium; mutagenicity, Ames plate incorporation; TA1537; 500 µg/plate, without S9, methanol).
The tissue uptake of CC(C)C[C@H](NC(=O)C[C@H](O)[C@H](CC(C)C)NC(=O)[C@H](Cc1c[nH]cn1)NC(=O)CNC(=O)[C@@H](NC(=O)[C@H](C)NC(=O)[C@H](Cc1c[nH]c2ccccc12)NC(=O)[C@H](CCC(N)=O)NC(=O)[C@@H](Cc1ccccc1)NC(=O)COCCOCCNC(=O)CCC(C(=O)O)N1CCN(CC(=O)O)CCN(CC(=O)O)CCN(CC(=O)O)CC1)C(C)C)C(N)=O (some centres unmarked) [lutetium-177 labelled] is reported as 0.013 ± 0.004 %ID/g (female BALB/c nu/nu mice, lung; intravenous, 50 pmol, 24 h).
With N=C(N)NCCC[C@H](N)C(=O)O the uptake half-time was 7.3 h (Bacillus subtilis; NCIB3610, MOPS medium; 1 mM, 1 mM equimolar amino acid mixture).
NC(=O)c1ncn([C@@H]2O[C@H](CO)[C@@H](O)[C@H]2O)n1 gave a selectivity index of 6.63 (human respiratory syncytial virus; viral replication, viral protein ELISA; HEp-2, A2; 5 days; reference: CC50 over EC50).
For N[C@@H](CC(=O)O)C(=O)O, the uptake half-time was 17.4 h (Bacillus subtilis; NCIB3610, MOPS medium; 1 mM, 1 mM equimolar amino acid mixture).
Cn1cc(-c2ccc(-c3cncc(Cl)c3N3CCC4(CCNC4=O)CC3)cc2)cn1: “log2 fold change” 3.33 (COLO 205; gene expression, microarray, measured: ISG20 mRNA; concentration not given, 2 h; reference: untreated cells).
Cc1cc(N)c2c(OCC(C)(C)C(=O)NC(C)C)cccc2n1: “mean revertant colonies” 29 colonies/plate (Salmonella typhimurium; reverse mutation, plate incorporation; TA98; 10 µg/plate, with rat liver S9).

Excerpt of the above:
With CC(C)[C@@H](N)C(=O)OC[C@H]1O[C@@](C#N)(c2ccc3c(N)ncnn23)[C@H](O)[C@@H]1O the selectivity index was over 69.4 (human respiratory syncytial virus; viral replication, viral protein ELISA; HEp-2, A2; 5 days; reference: CC50 over EC50).
